# Measured values from different studies.
# A part holds a random share of what one study measured. Substitutions count along the parent as printed.

# Block 1
# Target: Sal-like protein 4, full length isoform A (SALL4, Homo sapiens, UniProt Q9UJQ4, residues 1-1053)
# Sequence of UniProt Q9UJQ4 (whole entry, looked up): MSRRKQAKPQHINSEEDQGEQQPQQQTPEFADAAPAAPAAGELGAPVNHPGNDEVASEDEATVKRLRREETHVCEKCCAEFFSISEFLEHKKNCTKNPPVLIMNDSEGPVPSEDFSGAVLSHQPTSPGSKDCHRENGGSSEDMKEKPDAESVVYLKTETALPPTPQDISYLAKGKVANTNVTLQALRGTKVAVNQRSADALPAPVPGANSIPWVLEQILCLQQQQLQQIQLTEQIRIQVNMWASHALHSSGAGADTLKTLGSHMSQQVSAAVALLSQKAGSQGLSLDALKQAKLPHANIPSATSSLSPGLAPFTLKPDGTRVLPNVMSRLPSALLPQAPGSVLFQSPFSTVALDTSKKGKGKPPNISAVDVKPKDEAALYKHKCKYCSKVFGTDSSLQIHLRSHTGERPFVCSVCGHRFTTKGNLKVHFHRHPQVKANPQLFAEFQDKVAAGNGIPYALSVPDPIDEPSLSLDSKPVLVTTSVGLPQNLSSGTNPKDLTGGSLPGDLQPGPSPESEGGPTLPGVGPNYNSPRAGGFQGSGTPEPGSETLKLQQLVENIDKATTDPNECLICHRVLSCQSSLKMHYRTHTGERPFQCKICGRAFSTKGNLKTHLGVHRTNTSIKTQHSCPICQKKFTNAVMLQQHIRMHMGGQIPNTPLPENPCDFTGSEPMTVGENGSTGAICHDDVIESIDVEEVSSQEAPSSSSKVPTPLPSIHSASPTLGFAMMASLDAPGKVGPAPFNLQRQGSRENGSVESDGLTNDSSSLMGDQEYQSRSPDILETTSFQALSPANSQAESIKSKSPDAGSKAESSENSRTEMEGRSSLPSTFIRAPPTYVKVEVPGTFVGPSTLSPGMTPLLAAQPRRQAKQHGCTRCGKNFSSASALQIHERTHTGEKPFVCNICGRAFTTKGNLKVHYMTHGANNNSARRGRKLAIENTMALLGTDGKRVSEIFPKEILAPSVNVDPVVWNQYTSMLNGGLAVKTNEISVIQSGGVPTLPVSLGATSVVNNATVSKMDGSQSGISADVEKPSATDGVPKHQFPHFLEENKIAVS
# Method: universal PBM
# Form: double-stranded DNA, one strand shown
# Medium: in vitro
# Concentration: 600 nM
# Notes: 8-mer, flanks averaged, mean of replicates
# Reading: higher = stronger binding
Oligonucleotide,E-score
TACTGCGA,0.00216
ACTACATC,0.0948
CAATCTCG,-0.025
ATTACTAG,0.233
GCTGCTTA,-0.0517
GTCATCTA,0.081
CATTGAAC,0.132
ATCTGGTA,0.116
AACCAAGC,-0.113
AACCCCTC,-0.236
CCTCATCC,-0.117
TCGAGTAA,0.106
AGCTATCA,0.174
GTGAAGAA,0.0855
CCGGGTTA,-0.276
GTCCCAAC,-0.105
TCACATGA,0.138

# Block 2
# Target: RNA binding protein fox-1 homolog 2, RRM domain, GST-SBP tag (RBFOX2, Homo sapiens, UniProt O43251-10, residues 100-194)
# Method: RNA Bind-n-Seq
# Form: RNA
# Medium: in vitro
# Concentration: 365 nM
# Notes: natural RNA segment, single round, ends assumed
# Relative to: no-protein control
# Reading: higher = stronger binding
# Residues (chain): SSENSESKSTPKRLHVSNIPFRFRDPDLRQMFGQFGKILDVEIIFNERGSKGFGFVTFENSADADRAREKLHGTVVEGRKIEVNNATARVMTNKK
Oligonucleotide,RBNS enrichment (R)
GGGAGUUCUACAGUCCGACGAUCACUUUCUAAAAACUGAUGGUGAAAAGCUCUUACCGAAGCAACAAAAUUCAGCAGACACCUCUUCAGCUUGAGUUCUUCACCAUCUUUUGCAACUGAAAUAUGAUGGAUAUUGGAAUUCUCGGGUGCCAA,0.442
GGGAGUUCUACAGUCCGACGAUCGACACCAAAUGGAAGAAGCACAUCAAGACUGUUCUCCUGCGGCCAACACUGGCCCGGAAGCCGCCCUCCAUACAGGCCCUCAGGGGGCCUGCCUUCUGCGCCUCAGUCCCUGGAAUUCUCGGGUGCCAA,0.311
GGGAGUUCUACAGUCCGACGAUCUAUGUCUAUUAUCUGGACAUGAUUUUGCUAUGCAGUUGUGAUAAUAAAAAUUCUAAUUCCUCAGGUUUGGCCUUUUAAGUUAUGGCUGAAGACCUUUAAUGAUACUUAUGUGGAAUUCUCGGGUGCCAA,0.756
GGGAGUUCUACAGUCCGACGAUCUGUGUUCUGUGCUUCAGGCUCUGGAUCAUCACCCCCGCUGCUCUCCCAUUCCGGUACCUAAGUAACAUCUAUGCAAAGAAACACAUUAAAAGCAGCAAUAAAACUGCUCCUGGAAUUCUCGGGUGCCAA,0.275
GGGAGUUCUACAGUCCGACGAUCCAAGCUUCAUAUUAACCCUACCUGUCAACGUAACGAUUUCAUGAACGUUAUUAUAUUGUCGAAUUCCUACUGACAACAUUAUAACUGUAUGGGAGCUUAACUUUAUAAGGUGGAAUUCUCGGGUGCCAA,0.333
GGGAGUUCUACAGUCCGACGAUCCAAGGCUCCCUUUCUGGGGAAGCCUCGUGUUGGAGAUAGAGGCAGCAGGCCUGCGUUGCCAGGGAGUACCCCAGCCCCUUUCCCUUCUUGGGCUGCUACCGCCGCCACCAUGGAAUUCUCGGGUGCCAA,0.303
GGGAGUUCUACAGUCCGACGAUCUUCCUAUCUUAGCAUUUUGGUCUCAUUGGUUUAUAGACUCUGAUAAUAUCCCUAUCCAUGGAUCAUUUGAGUAUUGACUAAUGUACAUAGGUACCCAACUGGUUGAUUAUUGGAAUUCUCGGGUGCCAA,2.97
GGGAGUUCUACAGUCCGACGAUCGCUAGAUCACACUGAUUCUCCUGCCGUGGAUAUGAGUUAAAACCAAGUGGUAAAGCACUUGGAUUCACCCCCAAUGACCACUCAGCACAAAAUGCAGAAAUUCCUUCUGAUGGAAUUCUCGGGUGCCAA,0.15

# Block 3
# Target: RING finger protein unkempt homolog, zinc fingers 1-6, SBP tag (UNK, Homo sapiens, UniProt Q9C0B0, residues 30-357)
# Sequence of UniProt Q9C0B0 (30-357, looked up): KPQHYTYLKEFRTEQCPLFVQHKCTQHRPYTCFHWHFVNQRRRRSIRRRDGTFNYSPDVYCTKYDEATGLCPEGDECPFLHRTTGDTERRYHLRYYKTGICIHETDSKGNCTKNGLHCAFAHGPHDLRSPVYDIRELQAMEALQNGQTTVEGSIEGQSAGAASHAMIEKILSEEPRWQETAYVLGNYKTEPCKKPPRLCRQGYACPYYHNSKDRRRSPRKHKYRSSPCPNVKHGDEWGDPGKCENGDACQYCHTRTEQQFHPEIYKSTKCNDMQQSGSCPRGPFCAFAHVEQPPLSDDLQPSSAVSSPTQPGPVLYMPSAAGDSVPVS
# Method: RNA Bind-n-Seq
# Form: RNA
# Medium: in vitro
# Concentration: 100 nM
# Notes: RNA with constant flanks, vertebrate orthologous sites, ends assumed
# Relative to: input RNA pool
# Reading: higher = stronger binding
Oligonucleotide,bound/input enrichment [ratio]
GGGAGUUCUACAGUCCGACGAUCCAAUUCCAUGGUGGAGGGUUCCGAACUCAAAAAGGUUCGGUCCAACUCUCGAAUUUACCACCGCUAUUUCUUACUGGAUGCCGACAUGCAGAGUCUGAGGUGGGAGCCAUCCAAGAAGGACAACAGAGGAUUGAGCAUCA,0.334
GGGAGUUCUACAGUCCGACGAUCUUGGGACCAGCUCUCCAAAUAGGAAUAGUAGUAAAAAAAAUAAGCAAAAUGAUAUUUGUAUAGAAAAAACAGAAGUUAAAUCAUGUAAAGUAAAUGCUGCCAGUGUUCCAGGCCCUAAAGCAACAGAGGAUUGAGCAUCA,1.83
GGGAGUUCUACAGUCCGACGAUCGGUCAUUUAUAGCAAUUAGAGUGGGUUGCCCCUCUACUUCUCCCAAGAAGAAAUCCCAAAUAGAUUCCCUUCAUGUCAGAUUAUACUGUUCUGAUUUUAUUUUCUAUUAUUUUUACAUAUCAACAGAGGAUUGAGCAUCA,0.909
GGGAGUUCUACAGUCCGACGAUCUCAGUCCCCUGGGCUGGGACGGAUUUUUUUUAACGUCUUGAAACUUAAAUUCUGUGCUUGUAGGAGACUGUAACCUUUUUGUCUUUUUUUUUUUUUUUUAACAAAACAACCUCCACCUCCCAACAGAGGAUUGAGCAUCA,0.91
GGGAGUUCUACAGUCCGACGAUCUAUUCAGUCAUGGAGAAACAGAUAUUAAAAUAAUUUUAUGGCACUGUUCUUUAGUUUUAUUAGUUUUACAGAAGUGUUUGCAAACAACAGGAGCUGACUAUUGACGAGAAAGCGGAUUUUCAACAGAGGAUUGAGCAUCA,1.09
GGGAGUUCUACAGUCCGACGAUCUAUAAGAACUCUUGCAGUCUUAGAUGUUAUAAAAAUAUAUAUCUGAAUUGUAAGAGUUGUUAGCACAAGUUUUUUUUUUUUUUUUUUUUAAGCACUUGUUUUGGGUACAAGGCAUUUCUGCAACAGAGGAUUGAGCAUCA,0.926
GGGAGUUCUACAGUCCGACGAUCCACUUAUAUUGUGGCAUAUAGUCAACAUGGAAGUUAGACCAGCUCGGCUGAUUUGAAAUUUAGAUUUUUUUAAUUAUGUACUGGGGACAGGUUUUUGUCGCUUUACAUUGCUUCCUAGUUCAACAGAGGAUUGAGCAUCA,5.99

# Block 4
# Target: CCND1, cyclin fold, Cln2 fusion (human)
# Method: yeast growth competition, sequencing
# Medium: yeast
# Notes: strong parent motif
# Relative to: not given
# Reading: higher = stronger binding
# Starting sequence: PKN2 docking peptide (human); VSAVRKLDFSDTM
Substitution,normalised enrichment score
S10K,3.92
R5S,0.721
F9Y,0.944
A3D,0.177
R5T,0.862
V4I,6.31
S2A,3.51
S10A,5.11
D8T,4.03
F9W,2.04
A3F,0.713
K6P,1.28
S10Q,4.33
K6V,4.3
K6I,3.56
S10Y,3.6
K6S,2.16
K6F,3.82
F9H,0.097
T12R,4.92
S10T,4.86
S2F,2.71

# Some of these lines once more (block 4):
Substitution,normalised enrichment score
K6V,4.3
K6I,3.56
S10Y,3.6
K6S,2.16
K6F,3.82
F9H,0.097
T12R,4.92
S10T,4.86
S2F,2.71
